Published values collected from several papers.
Several values in a cell are separate wells, animals, samples, runs or records. ± gives the spread as reported.
Oprd1: Delta-type opioid receptor (Oprd1, Rattus norvegicus, UniProt P33533)
Sequence of UniProt P33533 (whole entry, looked up): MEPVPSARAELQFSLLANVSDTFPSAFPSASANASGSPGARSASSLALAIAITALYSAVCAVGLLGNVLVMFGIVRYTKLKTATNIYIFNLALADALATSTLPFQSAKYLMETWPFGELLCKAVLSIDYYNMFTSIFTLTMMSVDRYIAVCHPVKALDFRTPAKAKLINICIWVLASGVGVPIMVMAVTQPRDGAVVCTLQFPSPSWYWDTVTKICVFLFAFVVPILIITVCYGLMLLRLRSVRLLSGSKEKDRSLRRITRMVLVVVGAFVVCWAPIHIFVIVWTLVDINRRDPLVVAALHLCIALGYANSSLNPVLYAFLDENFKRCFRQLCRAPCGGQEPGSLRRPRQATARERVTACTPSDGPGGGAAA
Sequence of UniProt Q9R0P3 (whole entry, looked up): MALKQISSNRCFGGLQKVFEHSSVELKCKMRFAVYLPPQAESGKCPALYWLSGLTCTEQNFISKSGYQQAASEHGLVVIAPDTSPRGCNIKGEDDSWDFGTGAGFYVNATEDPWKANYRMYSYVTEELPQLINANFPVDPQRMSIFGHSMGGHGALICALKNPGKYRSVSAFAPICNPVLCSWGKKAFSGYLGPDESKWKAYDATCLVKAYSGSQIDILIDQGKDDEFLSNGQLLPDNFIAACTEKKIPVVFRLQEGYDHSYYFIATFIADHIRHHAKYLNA
Sequence of UniProt A5GZW8 (whole entry, looked up): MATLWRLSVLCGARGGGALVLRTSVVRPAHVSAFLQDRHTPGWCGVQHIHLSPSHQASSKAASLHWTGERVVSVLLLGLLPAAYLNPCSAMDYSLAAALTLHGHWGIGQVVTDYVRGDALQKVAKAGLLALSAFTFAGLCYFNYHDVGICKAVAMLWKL
Sequence of UniProt D0VWV4 (whole entry, looked up): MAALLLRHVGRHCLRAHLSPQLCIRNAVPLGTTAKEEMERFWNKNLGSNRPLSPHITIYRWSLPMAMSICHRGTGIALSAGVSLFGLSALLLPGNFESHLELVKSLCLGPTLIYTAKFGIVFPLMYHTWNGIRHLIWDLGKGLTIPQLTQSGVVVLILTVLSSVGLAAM
Sequence of UniProt Q007T0 (whole entry, looked up): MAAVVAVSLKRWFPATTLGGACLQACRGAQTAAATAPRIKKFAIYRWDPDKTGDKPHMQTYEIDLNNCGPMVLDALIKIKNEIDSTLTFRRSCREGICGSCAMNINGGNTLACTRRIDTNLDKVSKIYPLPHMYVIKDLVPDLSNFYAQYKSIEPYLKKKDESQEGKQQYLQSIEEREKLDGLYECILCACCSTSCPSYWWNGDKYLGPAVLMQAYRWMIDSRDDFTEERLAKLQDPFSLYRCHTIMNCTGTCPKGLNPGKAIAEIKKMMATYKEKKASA
Sequence of UniProt Q9Y2J8 (whole entry, looked up): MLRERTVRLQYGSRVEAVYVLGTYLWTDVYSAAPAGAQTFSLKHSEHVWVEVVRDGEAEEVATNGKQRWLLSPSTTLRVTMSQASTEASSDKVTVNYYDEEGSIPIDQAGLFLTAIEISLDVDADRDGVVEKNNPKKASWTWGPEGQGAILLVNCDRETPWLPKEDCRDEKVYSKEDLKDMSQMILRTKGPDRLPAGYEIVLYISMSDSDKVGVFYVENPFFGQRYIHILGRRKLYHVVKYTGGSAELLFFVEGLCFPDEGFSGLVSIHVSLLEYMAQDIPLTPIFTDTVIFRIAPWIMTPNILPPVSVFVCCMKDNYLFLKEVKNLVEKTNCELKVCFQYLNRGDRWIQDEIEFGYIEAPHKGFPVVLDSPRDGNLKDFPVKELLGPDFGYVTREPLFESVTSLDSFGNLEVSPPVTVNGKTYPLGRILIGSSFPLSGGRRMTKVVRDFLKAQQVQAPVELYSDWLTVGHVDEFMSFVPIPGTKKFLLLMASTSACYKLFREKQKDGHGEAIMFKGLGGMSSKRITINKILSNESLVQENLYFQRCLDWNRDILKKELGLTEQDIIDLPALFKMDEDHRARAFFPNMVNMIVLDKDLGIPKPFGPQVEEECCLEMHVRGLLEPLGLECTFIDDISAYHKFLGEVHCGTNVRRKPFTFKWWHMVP
Sequence of UniProt P53667 (whole entry, looked up): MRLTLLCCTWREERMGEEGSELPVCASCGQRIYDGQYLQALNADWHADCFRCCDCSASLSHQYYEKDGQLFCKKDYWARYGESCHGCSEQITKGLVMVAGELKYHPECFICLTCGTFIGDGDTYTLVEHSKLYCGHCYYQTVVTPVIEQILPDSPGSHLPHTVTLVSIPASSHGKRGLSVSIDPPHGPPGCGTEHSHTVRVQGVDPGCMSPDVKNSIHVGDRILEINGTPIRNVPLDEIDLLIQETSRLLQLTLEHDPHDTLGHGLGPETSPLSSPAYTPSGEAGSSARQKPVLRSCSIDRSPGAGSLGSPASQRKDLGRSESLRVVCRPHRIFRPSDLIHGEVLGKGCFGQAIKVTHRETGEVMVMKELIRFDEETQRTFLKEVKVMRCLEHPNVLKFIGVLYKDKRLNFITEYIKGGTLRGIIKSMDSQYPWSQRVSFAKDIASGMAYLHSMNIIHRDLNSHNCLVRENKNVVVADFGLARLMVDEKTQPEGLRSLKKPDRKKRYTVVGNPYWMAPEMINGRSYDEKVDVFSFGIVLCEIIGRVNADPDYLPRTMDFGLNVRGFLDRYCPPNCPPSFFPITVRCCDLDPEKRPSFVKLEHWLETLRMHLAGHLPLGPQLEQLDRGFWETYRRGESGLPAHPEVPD
Sequence of UniProt P0A988 (whole entry, unmodified, looked up): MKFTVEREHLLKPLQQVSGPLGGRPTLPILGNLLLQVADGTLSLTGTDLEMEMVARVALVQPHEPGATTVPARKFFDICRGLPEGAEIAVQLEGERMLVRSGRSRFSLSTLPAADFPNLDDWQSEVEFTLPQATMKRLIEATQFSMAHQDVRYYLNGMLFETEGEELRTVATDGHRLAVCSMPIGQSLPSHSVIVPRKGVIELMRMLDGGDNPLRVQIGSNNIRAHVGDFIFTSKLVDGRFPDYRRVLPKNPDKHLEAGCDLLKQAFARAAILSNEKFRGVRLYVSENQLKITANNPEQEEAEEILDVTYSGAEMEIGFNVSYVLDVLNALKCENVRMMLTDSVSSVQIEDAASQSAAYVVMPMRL
Sequence of UniProt P15823 (whole entry, looked up): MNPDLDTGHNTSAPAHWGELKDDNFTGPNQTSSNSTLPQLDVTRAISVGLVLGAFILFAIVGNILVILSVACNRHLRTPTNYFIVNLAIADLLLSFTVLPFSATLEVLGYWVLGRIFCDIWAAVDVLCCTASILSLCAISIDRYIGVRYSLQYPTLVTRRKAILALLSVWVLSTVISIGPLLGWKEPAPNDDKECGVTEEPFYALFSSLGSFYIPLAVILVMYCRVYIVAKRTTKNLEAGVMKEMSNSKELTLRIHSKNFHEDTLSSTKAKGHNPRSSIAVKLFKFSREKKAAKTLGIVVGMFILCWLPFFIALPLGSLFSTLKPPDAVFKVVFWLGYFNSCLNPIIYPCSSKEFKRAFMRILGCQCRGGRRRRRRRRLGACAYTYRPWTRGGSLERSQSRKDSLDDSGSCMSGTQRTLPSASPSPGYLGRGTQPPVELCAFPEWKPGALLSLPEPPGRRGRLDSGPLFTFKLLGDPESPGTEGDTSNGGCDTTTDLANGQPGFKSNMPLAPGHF
Sequence of UniProt P07384 (whole entry, looked up): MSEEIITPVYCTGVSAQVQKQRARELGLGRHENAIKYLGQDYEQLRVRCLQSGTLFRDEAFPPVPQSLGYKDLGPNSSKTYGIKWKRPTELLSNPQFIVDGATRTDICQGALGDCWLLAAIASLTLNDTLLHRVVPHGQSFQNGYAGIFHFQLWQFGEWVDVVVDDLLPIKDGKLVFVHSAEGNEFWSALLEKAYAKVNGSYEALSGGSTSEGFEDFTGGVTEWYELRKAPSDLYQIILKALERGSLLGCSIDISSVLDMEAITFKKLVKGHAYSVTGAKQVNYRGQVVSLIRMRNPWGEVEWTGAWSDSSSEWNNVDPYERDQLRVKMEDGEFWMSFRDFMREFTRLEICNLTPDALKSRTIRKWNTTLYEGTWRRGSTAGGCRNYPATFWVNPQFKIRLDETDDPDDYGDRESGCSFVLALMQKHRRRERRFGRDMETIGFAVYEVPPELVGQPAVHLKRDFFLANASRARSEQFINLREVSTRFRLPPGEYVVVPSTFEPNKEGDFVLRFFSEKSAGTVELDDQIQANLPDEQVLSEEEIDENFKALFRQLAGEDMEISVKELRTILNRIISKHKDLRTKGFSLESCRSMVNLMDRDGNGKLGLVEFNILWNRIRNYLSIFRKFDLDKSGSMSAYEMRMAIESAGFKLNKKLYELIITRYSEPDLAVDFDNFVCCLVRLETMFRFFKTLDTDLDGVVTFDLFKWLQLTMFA

CON(C(=O)c1cn(C)nc1C(F)F)C(C)Cc1c(Cl)cc(Cl)cc1Cl (centres unmarked)
reaction velocity (SDHD/SDHC/SDHB (Sus scrofa, UniProt A5GZW8+D0VWV4+Q007T0); enzyme activity, inhibitor, DCIP reduction; pig; 1 µM, added: DCIP 20 µM): 0.00203 µM/s and 0.00195 µM/s

CC(C)[C@H]1NC(=O)C[C@H]2/C=C/CCSSC[C@@H](NC1=O)C(=O)N[C@H](Cc1cccc3ccccc13)C(=O)NCC(=O)O2
inhibition (Serine/threonine-protein kinase BRSK2 (BRSK2, Homo sapiens, UniProt Q8IWQ3); enzyme activity, inhibitor; 10 µM): 3.7%

COc1ccc(F)cc1S(=O)(=O)Nc1cnc2c(c1)C(=O)NCCO2
inhibition (Na+/K+-ATPase; enzyme activity; heart; 10 µM): -15%

Cc1ccc(N2CC3CCC(C2)N3C)cc1C(=O)N[C@H](C)c1cc(-c2cnn(C)c2)nc2ccccc12
remaining activity (Calpain-1 catalytic subunit (CAPN1, Homo sapiens, UniProt P07384); enzyme activity; 10 µM, 0.5 h): 109%

CC(C)CC(O)(CC(C)C)c1cn(C(=O)N2CCCC2)nn1
SILAC ratio (S-formylglutathione hydrolase (Esd, Mus musculus, UniProt Q9R0P3); probe labelling, inhibitor, competitive ABPP-SILAC, item: Esd; mouse T cells; concentration not given, 4 h, in situ, single peptide; relative to: treated over DMSO, lower = more inhibition): 0.93 and 1.23 and 0.91 and 0.95 and 0.92 and 1 and 1.19 and 1.02

C[C@H](NCc1ccc(-c2ccc(C(F)(F)F)cc2)cc1)C(N)=O
inhibition (Alpha-1B adrenergic receptor (Adra1b, Rattus norvegicus, UniProt P15823); radioligand binding, SafetyScreen panel; 1 µM, species rat, added: 0.25 nM [3H]Prazosin): 2%

CCc1nnc(-c2c(OC)cc(-c3cnc4cc(-c5cnn(C)c5)ccn34)cc2OC)o1
remaining binding (Acetylcholinesterase (ACHE, Homo sapiens, UniProt P22303); radioligand binding; 10 µM, SafetyScreen44 replicate 2; lower = stronger displacement): 94.2%

CCNC(=S)NN=Cc1c2ccccc2cc2ccccc12.Cc1ccc(C(C)C)cc1.[Cl-].[Cl-].[Ru+2]
binding constant (Albumin (ALB, Homo sapiens, UniProt P02768); fluorescence titration, Scatchard; 296 K): 6.41 ± 0.12 10⁴ M⁻¹

Cc1cc(-c2ccc3ccccc3c2)nnc1NCCN1CCN(C)CC1
antagonist activity (Beta-1 adrenergic receptor (ADRB1, Homo sapiens, UniProt P08588); antagonist; concentration not given): negative

CC#CC(=O)NC[C@H](NC(=O)[C@H](CC1CCCCC1)NC(=O)[C@H](CCC(N)=O)NC(C)=O)C(=O)N[C@@H](CC(C)C)C(=O)N[C@@H](Cc1ccccc1)C(=O)O
ΔG (Beta sliding clamp (Escherichia coli, UniProt P0A988); binding, isothermal titration calorimetry; 22 °C): -10.5 kcal/mol

CS(C)(=O)=Nc1ccc(-c2ccc(-c3nc4cc(O[C@@H]5CO[C@H]6[C@@H]5OC[C@H]6O)[nH]c4cc3F)cc2)cc1
inhibition (LIM domain kinase 1 (LIMK1, Homo sapiens, UniProt P53667); enzyme activity, inhibitor; 10 µM): 3%

OC[C@H]1CNCCN1C[C@@H]1CCCN1C[C@@H](Cc1ccc2ccccc2c1)N1CCN(CCc2ccc(Cl)c(Cl)c2)[C@H](Cc2ccc(O)cc2)C1
remaining binding (Oprd1; radioligand binding; rat brain membranes; 500 nM, pH 7.5, 25 °C, added: 2 nM [3H]DPDPE): 92.2%

COc1ccccc1-n1c(SCC(=O)Nc2ccccc2F)nc2cccnc21
IC50 ratio (Dihydroorotate dehydrogenase (quinone), mitochondrial (PFF0160c, Plasmodium falciparum, UniProt Q08210, E182D); enzyme activity, DCIP colorimetric; relative to: E182D mutant over wild type): 3.6

CCn1nc(Cl)c2c1-c1cnc(N)c(c1)O[C@H](C)c1cc(F)ccc1-c1nn(C)cc1C2
selectivity ratio (Tyrosine-protein kinase FRK (FRK, Homo sapiens, UniProt P42685); kinase activity, inhibitor; relative to: IC50 FRK over IC50 ALK): 315 fold

CCCC[C@H]1CNCCN1C[C@@H]1CCCN1C[C@@H](Cc1ccc2ccccc2c1)N1CCN(CCc2ccc(Cl)c(Cl)c2)[C@H](Cc2ccc(O)cc2)C1
remaining binding (Oprd1; radioligand binding; rat brain membranes; 500 nM, pH 7.5, 25 °C, added: 2 nM [3H]DPDPE): 83.8%

COc1ccccc1-c1n[nH]c2nc(NC3CCN(C(=O)Cc4ccc(F)cc4F)CC3)ncc12
relative binding (cdc2-related kinase 6 (Leishmania donovani, UniProt A0A3Q8IPR6); affinity bead binding, bead competition pull-down; Leishmania donovani extract; 10 µM, analogue affinity beads; relative to: vehicle): 0.15

CCOC(=O)[C@@H]1Cc2c(cc([N+](=O)[O-])cc2[N+](=O)[O-])[C@H](O)[C@]12C(=O)Nc1ccc(Br)cc12
remaining binding (Serine/threonine-protein kinase pim-3 (PIM3, Homo sapiens, UniProt Q86V86); binding, competition with immobilised ligand; 0.1 µM): 46%

N[C@H](C(=O)N1CCCC1)C1CCN(c2nccc3c(-c4ncc(Cl)cc4Cl)cccc23)CC1
kcat (Protein-arginine deiminase type-2 (PADI2, Homo sapiens, UniProt Q9Y2J8); enzyme activity; 0.01573 µM, added: Ca2+ 0.25 mM): 0.967 s⁻¹ and 0.985 s⁻¹

CCCO[C@H]1[C@H](O)[C@@H](N)[C@@H](O[C@H]2[C@H](O[C@@H]3O[C@H](CO)[C@@H](O[C@H]4O[C@@H](CN)[C@@H](O)[C@H](O)[C@H]4N)[C@H]3O)[C@@H](O)[C@H](N)C[C@@H]2N)O[C@@H]1CO
specific binding (Muscarinic acetylcholine receptor M2 (CHRM2, Homo sapiens, UniProt P08172); radioligand binding; 10 µM, 1% DMSO): 4%

CC(C)C[C@H](NC(=O)[C@H](CCC(=O)O)NC(=O)[C@@H](N)Cc1ccccc1)C(=O)N[C@@H](CCC(=O)O)C(=O)N[C@@H](CCCNC(=N)N)C(=O)N[C@@H](CCCNC(=N)N)C(=O)N[C@@H](Cc1ccccc1)C(=O)N[C@@H](CCCCN)C(=O)N[C@@H](CCC(N)=O)C(=O)N[C@@H](CCC(N)=O)C(=O)O
promoter binding (NKX2-3; ChIP-qPCR, item: PDE1C promoter; TPCs; concentration not given): 0.0271 % input and 0.0307 % input

CN(C)[C@H]1C[C@@]23CC[C@@]4(O2)C(=CC[C@]2(C)[C@@H](c5ccc6ccncc6c5)CC[C@H]24)C=C3[C@@H](O)[C@@H]1O
inhibition (Microtubule-associated serine/threonine-protein kinase 3 (MAST3, Homo sapiens, UniProt O60307); ATP probe labelling, inhibitor, KiNativ profiling; 1 µM): 1.1%

O=C1NC2(CC2)COc2ncc(F)cc2[C@H]2COCCN2c2ccn3ncc1c3n2
organ-to-body weight ratio (Sprague-Dawley rat, male, testes; oral, 2.5 mg/kg/day, 4 weeks dosing, end of recovery): 0.654 ± 0.109%

N[C@@H](Cc1ccccc1)P(=O)(O)O
reaction rate reduction (PAL1 (Petroselinum crispum, UniProt P24481); L-Phe deamination, inhibitor, UV steady-state kinetics; 200 µM, added: L-Phe 1 mM): 14%

CC(=O)N[C@H](C(=O)N[C@@H](CCCNC(=N)N)C(=O)NCC(=O)N[C@@H](CO)C(=O)N[C@@H](CS)C(=O)N[C@@H](CCCNC(=N)N)C(=O)N[C@@H](CCCCN)C(=O)N[C@@H](CCCNC(=N)N)C(=O)N[C@@H](CC(N)=O)C(=O)N[C@@H](CCCNC(=N)N)C(=O)N[C@@H](CO)C(=O)N1CCC[C@H]1C(=O)N[C@@H](CCC(=O)O)C(=O)N[C@@H](CCCNC(=N)N)C(N)=O)[C@@H](C)O
binding stoichiometry (WD repeat-containing protein 5 (WDR5, Homo sapiens, UniProt P61964); isothermal titration calorimetry; concentration not given, pH 7.0, 20 °C): 2.14

O=C1NC(=O)c2c1c1cc(F)c[n+]3c1c1c2c2cc(O)ccc2[n]1[Ru-4]312([N]=C=S)[S+]3CC[S+]1CC[S+]2CC3 (centres unmarked)
remaining activity (Calcium/calmodulin-dependent protein kinase type II subunit beta (CAMK2B, Homo sapiens, UniProt Q13554); enzyme activity; 100 nM, human enzyme, added: 10 µM ATP; relative to: untreated): 28%

[CH3][Ti+2][O]C(=O)c1ccc([S][Au][PH](c2ccccc2)(c2ccccc2)c2ccccc2)cc1.c1cc[cH-]c1.c1cc[cH-]c1
remaining activity (Protein kinase C alpha type (PRKCA, Homo sapiens, UniProt P17252); kinase activity; 1 µM, added: ATP 10 µM): 96.3% and 101%

COc1c(N2CC3CCCNC3C2)c(F)cc2c(=O)c(C(=O)OCc3ccc([N+](=O)[O-])o3)cn(C3CC3)c12 (centres unmarked)
initial rate (Oxygen-insensitive NAD(P)H nitroreductase (nfsB, Escherichia coli K-12, UniProt P38489); substrate; added: NADH 100 µM): 0.54 ± 0.056 µM/min

CC[C@@H](C)[C@@H]1CN([C@H](Cc2ccc3ccccc3c2)CN2CCC[C@H]2CN2CCNC[C@@H]2Cc2ccc3ccccc3c2)CCN1CCc1ccc(Cl)c(Cl)c1
remaining binding (Oprd1; radioligand binding; rat brain membranes; 500 nM, pH 7.5, 25 °C, added: 2 nM [3H]DPDPE): 90.7%

CCN(N=Cc1cnc2ccc(Br)cn12)S(=O)(=O)c1cc([N+](=O)[O-])ccc1C
IC50 fold change (Phosphatidylinositol 4,5-bisphosphate 3-kinase catalytic subunit alpha isoform (PIK3CA, Homo sapiens, UniProt P42336, H855E); relative to: wild-type p110α): 2.5
